# Results pooled from the literature.
# A part holds a random share of what one study measured. Changes are numbered by the printed parent chain.

# Study 1 — technique: protein binding microarray; form: double-stranded DNA, one strand shown; sample: in vitro; concentration: not given; baseline: not given; reading: higher = stronger binding
# Target: Histone acetyltransferase KAT6A, both winged helices, GST fusion (KAT6A, Homo sapiens, UniProt Q92794, residues 1-181)
# Notes: 8-mer, flanks averaged, mean of 2 arrays, mostly near background
# Residues (chain): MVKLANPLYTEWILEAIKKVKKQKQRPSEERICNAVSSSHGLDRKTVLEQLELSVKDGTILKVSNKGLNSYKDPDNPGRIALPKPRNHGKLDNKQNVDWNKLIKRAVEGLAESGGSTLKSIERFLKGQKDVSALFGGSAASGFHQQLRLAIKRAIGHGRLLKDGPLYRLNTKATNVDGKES
Oligonucleotide,E-score
AGGACTTC,-0.112
CTCCATCA,-0.112
TGTTTCAA,-0.0577
GAATAAGC,-0.0344
TACGGATA,0.125
AAACTTGT,-0.122

# Study 2 — target: CCNB3, cyclin fold, Cln2 fusion (human); technique: yeast growth competition, sequencing; sample: yeast; notes: weak parent motif; baseline: not given; reading: higher = stronger binding
# Parent: PKN2 docking peptide (human); VSAVQKLDFSDTM
Substitution,normalised enrichment score
K6Y,0.222
A3T,0.139
D11C,0.522
A3S,0.109
T12P,0.518

# Study 3 — technique: RNA Bind-n-Seq; form: RNA; sample: in vitro; concentration: 365 nM; baseline: no-protein control; reading: higher = stronger binding
# Target: RNA binding protein fox-1 homolog 2, RRM domain, GST-SBP tag (RBFOX2, Homo sapiens, UniProt O43251-10, residues 100-194)
# Notes: natural RNA segment, single round, ends assumed
# All sequences stand within: GGGAGUUCUACAGUCCGACGAUC … UGGAAUUCUCGGGUGCCAA
# Residues (chain): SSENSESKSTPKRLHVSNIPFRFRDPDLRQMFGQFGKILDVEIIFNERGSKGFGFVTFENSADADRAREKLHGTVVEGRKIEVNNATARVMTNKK
Oligonucleotide,RBNS enrichment (R)
UUUGUUUACUAAAUACCUGUGAAGAAAUACCAUUAAAAAACUAUUUGGUUCUGAAUUCUUACUAGAAGGUGGUCUUUUGAAGUUAGUCCUUUCGGUACUUCUCAGAUGCC,0.622
UGCGGCCAGGCUGAGCUCUGCCCCCAACUUUGUUUUCUCUCAUGUUCUCAAUACACUCUGCCUCAAAUCCGUCUUGCUUCUUUCUUUCUUCCGUGCUGCUAGGGGUCAGG,1.24
GUAGGGUACAGAAUAGAGCGUGUGCUGUUGAUAAUAUCUCUCACCCGGAUCCCUCCUCACUUGCCCUGCCACUUUGCAUGGUUUGAUUUUGACCUGGUCCCCCACGUGUG,2.96
AGUAUACAGACUACUUUAAAGAUUUCCAAAUCCCCUAAUUUACCCCACAACAGCAUGUAAUUUUAGCCAAGAUAUGUCCUGUUACUAAGUAUCUCCCAAUGCUUUAGUAA,11.2
UUCUGACUUCUGUUUUUACUAAUGGAAGCUUUGCAAAUUGAAUUCUCAGUGAGUUGUAUAUUUAUACACCUGGCUUGAAGCCUUAAUUGUAUAUAAUGAUGCUUUUUAAA,0.344
GUGCUUCCUGGGGGUGGGGGAAUGCAGCCACAGUGUCUCCCCCUUCCCUCUUCCACCCCAGCUCCAGCCCUGGUCUUUCUUCCUCUUUCCCAUAACAGAAGCUAUGGCCC,0.403

# Further values, each from its own experiment
Substance,target,assay,test system,setting,how to read,measurement,result
"PhoQ, residues 284 288 289 292 302 303 AANNSF","PhoP, residues 12 14 15 18 19 DLLYY (Escherichia coli, UniProt P23836)","Sort-seq, measured: YFP reporter",E. coli,"PhoQ-PhoP variant library, together with: 10 µM Mg2+","baseline: high Mg2+ state, higher = stronger signaling",fold induction,2.49

# A few entries again (study 1):
Oligonucleotide,E-score
CTCCATCA,-0.112
GAATAAGC,-0.0344
